Measurements of several laboratories.
Each numbered part is a random draw from the data of one study; scales do not carry over between parts. Values joined by “and” are separate records of one study, mostly repeats; a detail may differ.
UniProt P41279, sequence (whole entry, looked up): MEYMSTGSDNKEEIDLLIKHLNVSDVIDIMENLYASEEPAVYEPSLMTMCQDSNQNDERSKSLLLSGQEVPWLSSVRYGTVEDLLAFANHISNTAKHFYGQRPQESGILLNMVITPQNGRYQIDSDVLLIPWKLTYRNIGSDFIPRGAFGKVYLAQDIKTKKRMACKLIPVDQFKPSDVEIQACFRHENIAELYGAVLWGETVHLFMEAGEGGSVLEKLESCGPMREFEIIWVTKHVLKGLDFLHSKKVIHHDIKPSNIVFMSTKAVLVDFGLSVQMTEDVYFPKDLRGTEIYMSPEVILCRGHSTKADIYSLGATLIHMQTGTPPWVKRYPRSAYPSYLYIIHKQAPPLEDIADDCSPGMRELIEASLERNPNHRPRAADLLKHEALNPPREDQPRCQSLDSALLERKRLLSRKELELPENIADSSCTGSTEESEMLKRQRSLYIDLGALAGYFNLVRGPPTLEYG
UniProt O14965, sequence (whole entry, looked up): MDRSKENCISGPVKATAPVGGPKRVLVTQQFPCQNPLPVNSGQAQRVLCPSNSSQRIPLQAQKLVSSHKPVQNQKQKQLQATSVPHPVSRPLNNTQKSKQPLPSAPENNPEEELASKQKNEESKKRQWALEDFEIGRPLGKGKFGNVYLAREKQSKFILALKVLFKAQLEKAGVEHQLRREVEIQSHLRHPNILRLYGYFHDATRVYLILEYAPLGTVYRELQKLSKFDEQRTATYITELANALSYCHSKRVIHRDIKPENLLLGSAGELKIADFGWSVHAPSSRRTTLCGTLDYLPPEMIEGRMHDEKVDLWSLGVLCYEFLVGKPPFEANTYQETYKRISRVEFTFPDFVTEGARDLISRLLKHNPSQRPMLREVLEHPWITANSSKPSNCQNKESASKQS
UniProt P08922, sequence (whole entry, looked up): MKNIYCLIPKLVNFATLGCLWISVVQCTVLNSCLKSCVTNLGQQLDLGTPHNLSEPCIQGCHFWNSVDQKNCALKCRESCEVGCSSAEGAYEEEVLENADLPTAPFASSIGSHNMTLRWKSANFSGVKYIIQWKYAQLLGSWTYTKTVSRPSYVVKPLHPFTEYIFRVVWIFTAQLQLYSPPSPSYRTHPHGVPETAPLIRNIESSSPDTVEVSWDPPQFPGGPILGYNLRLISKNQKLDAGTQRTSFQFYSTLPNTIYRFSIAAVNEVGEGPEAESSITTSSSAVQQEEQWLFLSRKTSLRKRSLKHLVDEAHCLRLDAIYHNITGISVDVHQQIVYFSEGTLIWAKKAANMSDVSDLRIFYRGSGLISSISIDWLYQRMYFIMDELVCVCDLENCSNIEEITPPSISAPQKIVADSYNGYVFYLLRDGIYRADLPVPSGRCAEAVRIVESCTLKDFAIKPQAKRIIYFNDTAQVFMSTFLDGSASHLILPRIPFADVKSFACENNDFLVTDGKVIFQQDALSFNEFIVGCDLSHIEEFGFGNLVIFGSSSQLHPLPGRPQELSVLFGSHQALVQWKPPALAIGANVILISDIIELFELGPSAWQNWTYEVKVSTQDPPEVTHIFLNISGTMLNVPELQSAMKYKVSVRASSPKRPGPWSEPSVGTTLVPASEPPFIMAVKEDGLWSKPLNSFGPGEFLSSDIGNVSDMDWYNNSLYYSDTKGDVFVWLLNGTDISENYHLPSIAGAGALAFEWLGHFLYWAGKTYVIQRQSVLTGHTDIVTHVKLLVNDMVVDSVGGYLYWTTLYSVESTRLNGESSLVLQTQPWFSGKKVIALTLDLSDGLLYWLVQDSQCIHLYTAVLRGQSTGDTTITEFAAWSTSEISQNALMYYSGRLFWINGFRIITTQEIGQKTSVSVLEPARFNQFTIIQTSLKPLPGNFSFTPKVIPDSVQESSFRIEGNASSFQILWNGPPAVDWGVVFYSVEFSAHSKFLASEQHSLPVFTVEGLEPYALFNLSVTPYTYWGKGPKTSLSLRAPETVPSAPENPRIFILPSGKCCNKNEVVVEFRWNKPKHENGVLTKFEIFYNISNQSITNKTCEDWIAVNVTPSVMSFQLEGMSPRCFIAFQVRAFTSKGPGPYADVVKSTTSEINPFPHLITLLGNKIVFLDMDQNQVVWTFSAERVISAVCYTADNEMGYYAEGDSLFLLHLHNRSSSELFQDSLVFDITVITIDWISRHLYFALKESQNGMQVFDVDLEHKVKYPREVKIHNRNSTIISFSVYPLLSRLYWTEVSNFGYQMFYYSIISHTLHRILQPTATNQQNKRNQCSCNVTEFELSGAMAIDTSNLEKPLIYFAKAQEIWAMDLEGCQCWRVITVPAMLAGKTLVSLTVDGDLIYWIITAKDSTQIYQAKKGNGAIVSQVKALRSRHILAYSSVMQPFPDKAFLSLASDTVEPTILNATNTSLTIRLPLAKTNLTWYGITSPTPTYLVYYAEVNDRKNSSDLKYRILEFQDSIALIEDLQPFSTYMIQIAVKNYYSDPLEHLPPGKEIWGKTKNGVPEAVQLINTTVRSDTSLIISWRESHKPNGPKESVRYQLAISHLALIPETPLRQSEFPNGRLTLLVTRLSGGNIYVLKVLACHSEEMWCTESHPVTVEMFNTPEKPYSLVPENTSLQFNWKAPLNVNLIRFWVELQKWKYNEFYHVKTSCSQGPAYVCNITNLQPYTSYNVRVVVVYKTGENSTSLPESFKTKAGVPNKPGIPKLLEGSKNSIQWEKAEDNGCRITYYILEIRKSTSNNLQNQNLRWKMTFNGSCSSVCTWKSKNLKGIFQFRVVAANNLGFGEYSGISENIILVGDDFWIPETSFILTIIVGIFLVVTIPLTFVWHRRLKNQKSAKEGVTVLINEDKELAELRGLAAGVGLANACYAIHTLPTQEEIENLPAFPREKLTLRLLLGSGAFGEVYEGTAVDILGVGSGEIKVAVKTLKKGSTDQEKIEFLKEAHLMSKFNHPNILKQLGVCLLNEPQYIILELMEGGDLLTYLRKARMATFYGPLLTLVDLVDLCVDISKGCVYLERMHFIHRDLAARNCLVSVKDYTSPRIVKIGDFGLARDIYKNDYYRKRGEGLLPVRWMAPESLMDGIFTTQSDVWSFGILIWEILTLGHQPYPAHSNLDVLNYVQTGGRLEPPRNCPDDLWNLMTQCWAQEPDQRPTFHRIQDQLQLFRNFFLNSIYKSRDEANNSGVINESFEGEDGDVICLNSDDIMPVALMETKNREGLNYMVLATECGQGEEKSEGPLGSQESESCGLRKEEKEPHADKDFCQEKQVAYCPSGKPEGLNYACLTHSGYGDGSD
UniProt P53779, sequence (whole entry, looked up): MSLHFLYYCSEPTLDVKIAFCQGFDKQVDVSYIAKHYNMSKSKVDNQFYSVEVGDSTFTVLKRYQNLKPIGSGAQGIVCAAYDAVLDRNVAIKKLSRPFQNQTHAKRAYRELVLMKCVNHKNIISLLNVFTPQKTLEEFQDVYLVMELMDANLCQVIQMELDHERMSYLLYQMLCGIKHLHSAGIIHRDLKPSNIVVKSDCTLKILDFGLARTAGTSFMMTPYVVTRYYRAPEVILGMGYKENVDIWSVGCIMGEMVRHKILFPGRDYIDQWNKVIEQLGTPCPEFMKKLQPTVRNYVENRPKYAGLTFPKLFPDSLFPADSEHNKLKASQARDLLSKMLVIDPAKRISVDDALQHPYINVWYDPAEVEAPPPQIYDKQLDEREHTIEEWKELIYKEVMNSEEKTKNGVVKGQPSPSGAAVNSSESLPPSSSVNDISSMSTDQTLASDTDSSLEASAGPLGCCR
UniProt Q15139, sequence (whole entry, looked up): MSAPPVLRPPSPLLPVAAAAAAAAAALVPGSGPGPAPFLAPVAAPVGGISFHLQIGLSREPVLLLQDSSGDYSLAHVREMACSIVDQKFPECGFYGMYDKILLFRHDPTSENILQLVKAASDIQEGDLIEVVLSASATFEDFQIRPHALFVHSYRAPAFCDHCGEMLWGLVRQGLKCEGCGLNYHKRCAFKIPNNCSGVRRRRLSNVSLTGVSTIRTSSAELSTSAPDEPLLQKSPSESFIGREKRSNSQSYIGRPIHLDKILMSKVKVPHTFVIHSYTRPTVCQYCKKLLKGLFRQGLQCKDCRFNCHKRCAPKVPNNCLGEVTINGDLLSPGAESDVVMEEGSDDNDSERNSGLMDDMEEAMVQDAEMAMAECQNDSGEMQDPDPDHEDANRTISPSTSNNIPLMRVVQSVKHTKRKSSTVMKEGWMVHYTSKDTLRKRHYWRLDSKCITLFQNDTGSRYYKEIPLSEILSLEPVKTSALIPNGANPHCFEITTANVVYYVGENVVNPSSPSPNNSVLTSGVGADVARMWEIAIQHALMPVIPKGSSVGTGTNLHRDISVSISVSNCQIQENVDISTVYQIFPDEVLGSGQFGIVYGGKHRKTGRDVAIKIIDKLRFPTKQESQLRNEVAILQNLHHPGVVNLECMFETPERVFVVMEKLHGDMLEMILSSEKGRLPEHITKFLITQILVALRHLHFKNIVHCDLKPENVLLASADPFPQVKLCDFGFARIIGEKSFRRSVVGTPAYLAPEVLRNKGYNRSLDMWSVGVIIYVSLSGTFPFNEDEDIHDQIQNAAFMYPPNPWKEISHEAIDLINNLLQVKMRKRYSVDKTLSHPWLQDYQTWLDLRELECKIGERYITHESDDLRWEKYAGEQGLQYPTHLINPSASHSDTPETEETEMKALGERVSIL
UniProt P19784, sequence (whole entry, looked up): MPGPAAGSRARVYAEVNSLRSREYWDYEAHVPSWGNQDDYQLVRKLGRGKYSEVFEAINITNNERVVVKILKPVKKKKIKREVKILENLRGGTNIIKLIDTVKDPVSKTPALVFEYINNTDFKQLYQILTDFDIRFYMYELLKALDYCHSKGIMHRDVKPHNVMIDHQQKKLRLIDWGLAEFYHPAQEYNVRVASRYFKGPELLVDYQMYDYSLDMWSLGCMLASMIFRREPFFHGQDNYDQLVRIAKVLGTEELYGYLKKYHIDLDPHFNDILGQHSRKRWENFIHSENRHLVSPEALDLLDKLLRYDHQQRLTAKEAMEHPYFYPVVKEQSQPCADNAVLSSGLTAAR

Sample 1 — technique: CellTiter-Glo; tested at: 2 µM; reference: DMSO
Structure (SMILES): CS(=O)(=O)c1cc(C2(NC(=O)c3cncc4c3cnn4-c3ccc(F)cc3)CC2)ccn1
cell line | system | setting | viability
normal organoid sample F | human, normal-adjacent epithelium |  | 85.4% and 84.5%
normal organoid sample D | human, normal-adjacent epithelium |  | 117% and 115%
normal organoid sample H | human, normal-adjacent epithelium |  | 101% and 97.8%
normal-adjacent organoid sample F |  | replicate mean | 84.9%
normal organoid sample E | human, normal-adjacent epithelium |  | 87.3% and 74.4%
normal-adjacent organoid sample E |  | replicate mean | 80.9%
sample D normal colon organoid |  | mean of replicates | 116%
normal adjacent epithelium patient-derived organoids |  | mean of five organoid lines | 97%
normal organoid sample G | human, normal-adjacent epithelium |  | 97.8%

Sample 2 — read-out: enzyme activity; action: inhibitor; tested at: 0.5 µM; reference: control
Compound: CS(=O)(=O)CCNCc1ccc(-c2ccc3ncnc(Nc4ccc(OCc5cccc(F)c5)c(Cl)c4)c3c2)o1
target | remaining activity [%]
Homeodomain-interacting protein kinase 3 (HIPK3, Homo sapiens, UniProt Q9H422) | 99.1
Mitogen-activated protein kinase 10 (MAPK10, Homo sapiens, UniProt P53779) | 100
Calcium/calmodulin-dependent protein kinase type 1D (CAMK1D, Homo sapiens, UniProt Q8IU85) | 104
NT-3 growth factor receptor (NTRK3, Homo sapiens, UniProt Q16288) | 103
G protein-coupled receptor kinase 5 (GRK5, Homo sapiens, UniProt P34947) | 97.2
Serine/threonine-protein kinase D1 (PRKD1, Homo sapiens, UniProt Q15139) | 99.4
Dual specificity tyrosine-phosphorylation-regulated kinase 4 (DYRK4, Homo sapiens, UniProt Q9NR20) | 103
Mitogen-activated protein kinase kinase kinase 8 (MAP3K8, Homo sapiens, UniProt P41279) | 99.7
Aurora kinase A (AURKA, Homo sapiens, UniProt O14965) | 81.5
Serine/threonine-protein kinase N2 (PKN2, Homo sapiens, UniProt Q16513) | 92
Mitogen-activated protein kinase kinase kinase 2 (MAP3K2, Homo sapiens, UniProt Q9Y2U5) | 123
Myotonin-protein kinase (DMPK, Homo sapiens, UniProt Q09013) | 94.7
Serine/threonine-protein kinase BRSK1 (BRSK1, Homo sapiens, UniProt Q8TDC3) | 98.6
Cyclin-dependent kinase 7 (CDK7, Homo sapiens, UniProt P50613) | 109
Protein-tyrosine kinase 2-beta (PTK2B, Homo sapiens, UniProt Q14289) | 101
Casein kinase II subunit alpha' (CSNK2A2, Homo sapiens, UniProt P19784) | 101
Proto-oncogene tyrosine-protein kinase ROS (ROS1, Homo sapiens, UniProt P08922) | 107

Sample 3 — technique: LC-MS/MS; measured: S-adenosylmethionine; host: human patients; matrix: plasma
SMILES: COc1ccc(-c2c(Nc3ccccn3)[nH]c3c(C4=CCCCC4)c(-c4ccccc4)nn3c2=O)cc1
setting | plasma SAM concentration [ng/mL]
400 mg QD, 4 h, mean | 20.8
200 mg BID, 1 h, median | 12.3
50 mg QD, 1 h, mean | 24.9
100 mg QD, 2 h, geometric mean | 17.7
200 mg BID, 6 h, mean | 11.6
100 mg QD, 2 h, median | 13.7

Sample 4 — host: human; matrix: microsomes or S9; tested at: 2 µM; time: 0.5 h
Compound | remaining compound [%]
O=S(=O)(Cc1cc(Cl)cc(Cl)c1)N1CCN(c2nccs2)CC1 | > 99
Cc1cc(C(=O)NC2CCCC2)ccc1NC(=O)N1CCn2ncnc2C1 | 92.3
CCOC(=O)c1[nH]c(=O)n(CCNC(=O)OC(C)(C)C)c1C | 59.3
Cc1cc(NCCCc2nc(C(C)C)no2)nc(-c2ccc(S(C)(=O)=O)cc2)n1 | 15.2
Cc1ccc(NC(=O)N2Cc3c(sc4c3CCCC4)-n3cccc3C2C)cc1Cl (centres unmarked) | 14.8
CCc1cnc(NCCCn2ccnc2CC)nc1 | 97.7
Cc1nn(-c2ccc(F)cc2)c(C)c1C1CC(=O)Nc2c1c(C)nn2-c1ncnc2[nH]cnc12 (centres unmarked) | 75.3
CC(C)c1nc(OCCCN(C)C)c(C#N)c2c1CCCC2 | 50.2
Cc1c(C(=O)Nc2ccc3c(c2)NC(=O)C(C)O3)oc2ccc(F)cc12 (centres unmarked) | < 1
CCOc1ccc(C(=O)N2CC(c3nnc(-c4ccncc4)o3)C3(CCOCC3)C2)cc1 (centres unmarked) | 74.7
CCOc1cc(-c2ccccc2)nn1Cc1ccc2cccnc2c1 | 20.2
Cc1cc(C(=O)COC(=O)c2ncc(Cl)c(Cl)c2Cl)c(C)n1-c1nccs1 | 14.2
COc1cc(=O)[nH]cc1C(=O)N1CCNC(c2ccccc2)C1 (centres unmarked) | > 99
O=C(C(F)CC1CCCCC1)N1CCC(N2CCCCC2=O)CC1 (centres unmarked) | 72
Cc1ccc(C2Nc3ccc4ccccc4c3C3=C2CC(C)(C)CC3=O)o1 (centres unmarked) | 3.57

A few entries again (sample 4):
Compound | remaining compound [%]
Cc1cc(C(=O)COC(=O)c2ncc(Cl)c(Cl)c2Cl)c(C)n1-c1nccs1 | 14.2
COc1cc(=O)[nH]cc1C(=O)N1CCNC(c2ccccc2)C1 (centres unmarked) | > 99
O=C(C(F)CC1CCCCC1)N1CCC(N2CCCCC2=O)CC1 (centres unmarked) | 72
Cc1ccc(C2Nc3ccc4ccccc4c3C3=C2CC(C)(C)CC3=O)o1 (centres unmarked) | 3.57
